Published values gathered from unrelated publications.
Lines come from different studies, so protocols differ.
SLCO1B3: Solute carrier organic anion transporter family member 1B3 (SLCO1B3, Homo sapiens, UniProt Q9NPD5)
Sequence of UniProt Q9NPD5 (whole entry, looked up): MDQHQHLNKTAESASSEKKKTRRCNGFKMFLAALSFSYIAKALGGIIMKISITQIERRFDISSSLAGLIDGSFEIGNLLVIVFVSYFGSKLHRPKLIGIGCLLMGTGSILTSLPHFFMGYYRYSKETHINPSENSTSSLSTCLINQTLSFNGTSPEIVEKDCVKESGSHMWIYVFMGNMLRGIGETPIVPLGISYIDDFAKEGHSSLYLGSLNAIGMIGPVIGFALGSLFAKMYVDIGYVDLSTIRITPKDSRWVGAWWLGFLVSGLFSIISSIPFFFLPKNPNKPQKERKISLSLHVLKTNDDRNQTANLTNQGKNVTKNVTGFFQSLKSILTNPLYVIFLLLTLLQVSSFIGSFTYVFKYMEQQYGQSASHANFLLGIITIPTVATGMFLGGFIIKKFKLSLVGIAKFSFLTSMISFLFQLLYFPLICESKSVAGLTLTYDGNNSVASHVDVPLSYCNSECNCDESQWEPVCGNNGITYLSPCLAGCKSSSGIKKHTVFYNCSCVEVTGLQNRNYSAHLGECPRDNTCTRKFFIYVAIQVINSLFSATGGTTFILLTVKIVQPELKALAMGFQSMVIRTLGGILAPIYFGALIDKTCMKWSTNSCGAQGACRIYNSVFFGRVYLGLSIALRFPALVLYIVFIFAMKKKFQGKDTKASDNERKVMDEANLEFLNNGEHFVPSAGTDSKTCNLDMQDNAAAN
Tumor necrosis factor receptor superfamily member 9/Nectin-4: Tumor necrosis factor receptor superfamily member 9/Nectin-4 (Homo sapiens, UniProt Q07011+Q96NY8)
Sequence of UniProt Q07011 (whole entry, looked up): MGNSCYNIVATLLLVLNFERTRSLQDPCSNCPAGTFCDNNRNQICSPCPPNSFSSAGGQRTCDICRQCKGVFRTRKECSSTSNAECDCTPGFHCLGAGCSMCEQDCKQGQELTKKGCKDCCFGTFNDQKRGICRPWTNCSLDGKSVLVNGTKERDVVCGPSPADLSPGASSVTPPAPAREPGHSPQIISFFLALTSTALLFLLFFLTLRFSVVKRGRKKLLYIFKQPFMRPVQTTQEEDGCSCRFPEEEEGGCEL
Sequence of UniProt Q96NY8 (whole entry, looked up): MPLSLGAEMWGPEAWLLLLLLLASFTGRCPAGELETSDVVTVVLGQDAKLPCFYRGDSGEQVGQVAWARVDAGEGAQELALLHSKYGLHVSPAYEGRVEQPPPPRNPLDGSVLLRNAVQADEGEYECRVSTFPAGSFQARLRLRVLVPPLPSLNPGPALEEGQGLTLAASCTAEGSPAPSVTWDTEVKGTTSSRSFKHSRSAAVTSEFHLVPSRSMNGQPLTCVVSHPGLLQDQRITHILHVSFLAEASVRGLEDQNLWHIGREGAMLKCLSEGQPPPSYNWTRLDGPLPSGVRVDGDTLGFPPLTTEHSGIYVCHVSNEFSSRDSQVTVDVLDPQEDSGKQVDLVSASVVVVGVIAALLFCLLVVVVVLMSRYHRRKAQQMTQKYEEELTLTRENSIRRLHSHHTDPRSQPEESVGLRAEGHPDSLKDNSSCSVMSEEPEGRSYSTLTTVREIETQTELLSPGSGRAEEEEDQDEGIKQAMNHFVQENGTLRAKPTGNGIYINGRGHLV
Sequence of UniProt Q05421 (whole entry, looked up): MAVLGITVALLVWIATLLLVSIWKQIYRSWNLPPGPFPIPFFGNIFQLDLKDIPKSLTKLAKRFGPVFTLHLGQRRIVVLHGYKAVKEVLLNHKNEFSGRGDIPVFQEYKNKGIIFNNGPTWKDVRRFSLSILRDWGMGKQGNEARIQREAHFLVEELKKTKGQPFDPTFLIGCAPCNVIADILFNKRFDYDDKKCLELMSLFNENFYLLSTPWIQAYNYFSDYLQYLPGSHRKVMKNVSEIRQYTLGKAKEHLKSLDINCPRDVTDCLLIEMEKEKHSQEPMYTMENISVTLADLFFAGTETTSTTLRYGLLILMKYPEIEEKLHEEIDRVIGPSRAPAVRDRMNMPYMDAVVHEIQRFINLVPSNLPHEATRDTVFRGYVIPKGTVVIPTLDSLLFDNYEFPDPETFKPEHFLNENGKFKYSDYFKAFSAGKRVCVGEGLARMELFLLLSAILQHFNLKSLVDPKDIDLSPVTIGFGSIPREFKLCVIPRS
Sequence of UniProt P03372 (whole entry, unmodified, looked up): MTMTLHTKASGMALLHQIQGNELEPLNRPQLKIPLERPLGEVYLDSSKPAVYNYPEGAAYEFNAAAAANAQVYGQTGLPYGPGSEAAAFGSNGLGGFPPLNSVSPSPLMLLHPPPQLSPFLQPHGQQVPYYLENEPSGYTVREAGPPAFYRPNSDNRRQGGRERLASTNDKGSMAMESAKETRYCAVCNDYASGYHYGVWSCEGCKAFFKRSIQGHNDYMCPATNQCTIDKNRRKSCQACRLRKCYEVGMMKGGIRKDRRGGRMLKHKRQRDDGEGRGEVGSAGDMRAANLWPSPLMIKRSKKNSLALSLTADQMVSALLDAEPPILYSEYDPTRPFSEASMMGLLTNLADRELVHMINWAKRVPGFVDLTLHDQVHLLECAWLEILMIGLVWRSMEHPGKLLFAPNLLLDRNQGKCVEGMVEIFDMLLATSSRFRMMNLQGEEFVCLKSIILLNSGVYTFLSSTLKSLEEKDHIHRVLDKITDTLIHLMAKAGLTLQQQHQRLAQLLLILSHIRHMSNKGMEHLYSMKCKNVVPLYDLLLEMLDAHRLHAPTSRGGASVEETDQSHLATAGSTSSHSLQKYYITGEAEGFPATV

Cc1oncc1C(=O)Nc1ccc(C(F)(F)F)cc1 — inhibition (SLCO1B3; transport, inhibitor; transiently transfected cells; 100 µM, 10 (unit not given), with: CCK-8): 94.5%
CCC(C)(c1ccc(O)cc1)c1ccc(O)cc1 — ΔS (Estrogen receptor (ESR1, Homo sapiens, UniProt P03372); ITC; 25 °C): -27.2 cal/mol/K
C=CC1CO1 (stereo not drawn) — IC50 (Cytochrome P450 2E1 (Cyp2e1, Mus musculus, UniProt Q05421); 4-nitrophenol hydroxylation, inhibitor; B6C3F1 mouse, liver microsomes; with: 4-nitrophenol 50 µM): 54 µM
CCN(CC)CCCC(C)Nc1ccnc2cc(Cl)ccc12 (stereo not drawn) — inhibition (SLCO1B3; transport, inhibitor; transiently transfected cells; 100 µM, 10 (unit not given), with: CCK-8): 57.3%
COc1ccccc1C(=O)NC1CCCN(Cc2cccc(-c3ccc(C)c(Cl)c3)c2)C1 (stereo not drawn) — cytotoxicity efficacy (Vero-E6; CellTiter-Glo ATP; concentration not given, 72 h, first round 5-point; relative to: DMSO 0%, hyamine -100%, more negative, more toxic): -11.5%
CC1(C)[C@H](C=C(Cl)Cl)[C@H]1C(=O)OCc1cccc(Oc2ccccc2)c1 — enzyme contribution to CLint (human CYP1A2; IVIVE from expressed enzymes; human, liver, in vivo scaled; 0.1 µM, age-specific): 0.08%
CNCCN(C)c1nc(NC(C)c2ccccc2)c2ccccc2n1 (stereo not drawn) — cytotoxicity efficacy (Vero-E6; CellTiter-Glo ATP; concentration not given, 72 h, second round 5-point; relative to: DMSO 0%, hyamine -100%, more negative, more toxic): 0%
CCCC[C@@H]1NC(=O)[C@H](Cc2ccc(O)cc2)NC(=O)[C@@H]2CCCN2C(=O)[C@H](CC(=O)O)NC(=O)[C@H](C)NC(=O)[C@H](Cc2ccccc2)NC(=O)[C@@H]2CSCCC(=O)N3CN(CN(C3)C(=O)CCSC[C@H](NC(C)=O)C(=O)N[C@@H](CC(C)(C)C)C(=O)N3CCC[C@H]3C(=O)N[C@@H](CCC(=O)O)C(=O)N[C@H](CCCCNC(=O)CCc3cn(CCOCCOCCOCCN(CCOCCOCCOCCC(=O)N[C@H]4CSCCC(=O)N5CN6CN(C5)C(=O)CCSC[C@H](NC(=O)[C@@H](CC(=O)O)NC(=O)[C@H](Cc5cccc7ccccc57)NC(=O)[C@@H]5CCCN5C4=O)C(=O)N[C@@H](CCSC)C(=O)N[C@@H](CCCCNC(=N)N)C(=O)N[C@@H](CC(=O)O)C(=O)N[C@@H](Cc4c[nH]c5ccccc45)C(=O)N[C@@H](CO)C(=O)N[C@@H]([C@@H](C)O)C(=O)N4CCC[C@H]4C(=O)N4C[C@H](O)C[C@H]4C(=O)N[C@@H](Cc4c[nH]c5ccccc45)C(=O)N[C@H](C(N)=O)CSCCC6=O)CCOCCOCCOCCn4cc(CCC(=O)NCCCC[C@H]5NC(=O)[C@H](CCC(=O)O)NC(=O)[C@@H]6CCCN6C(=O)[C@H](CC(C)(C)C)NC(=O)[C@@H](NC(C)=O)CSCCC(=O)N6CN7CN(C6)C(=O)CCSC[C@H](NC(=O)[C@H](Cc6ccc(O)cc6)NC(=O)[C@@H]6CCCN6C5=O)C(=O)N[C@@H](Cc5ccccc5)C(=O)N[C@@H](C)C(=O)N[C@@H](CC(=O)O)C(=O)N5CCC[C@H]5C(=O)N[C@@H](Cc5ccc(O)cc5)C(=O)N[C@@H](CCCC)C(=O)NCCSCCC7=O)nn4)nn3)C(=O)N3CCC[C@H]3C(=O)N[C@@H](Cc3ccc(O)cc3)C(=O)N2)C(=O)CCSCCNC1=O — Emax (Tumor necrosis factor receptor superfamily member 9/Nectin-4; reporter gene, agonist, luciferase reporter; CD137 Jurkat reporter with HT-1376; 6 h, geometric mean; relative to: wells without compound): 75 fold
COC(=O)c1cc(O)c(O)c(O)c1 — aglycone concentration increase (β-glucuronidase Helix pomatia; concentration not given, 6 h, pH 7.4, glucuronide hydrolysis; relative to: untreated control): ≥ 1.25 fold
COc1ccc2cc1Oc1ccc(cc1)C[C@H]1c3cc(c(OC)cc3CCN1C)Oc1c(OC)c(OC)cc3c1[C@H](C2)N(C)CC3 — inhibition (SLCO1B3; transport, inhibitor; 10 µM, with: EG): 41.9%
CCCC[C@@H]1NC(=O)[C@H](Cc2ccc(O)cc2)NC(=O)[C@@H]2CCCN2C(=O)[C@H](CC(=O)O)NC(=O)[C@H](C)NC(=O)[C@H](Cc2ccccc2)NC(=O)[C@@H]2CSCCC(=O)N3CN(CN(C3)C(=O)CCSC[C@@H](C(=O)N[C@@H](C)C(N)=O)NC1=O)C(=O)CCSC[C@H](NC(C)=O)C(=O)N[C@@H](CC(C)(C)C)C(=O)N1CCC[C@H]1C(=O)N[C@@H](CCC(=O)O)C(=O)N[C@H](CCCCNC(=O)CCc1cn(CCOCCOCCCOCCOCCOCCOCCOCCOCCOCCOCCNC(=O)CCOCC(COCCC(=O)NCCOCCOCCOCCOCCOCCOCCOCCOCCOCCOCCn3cc(CCC(=O)NCCCC[C@H]4NC(=O)[C@H](CCC(=O)O)NC(=O)[C@@H]5CCCN5C(=O)[C@H](CC(C)(C)C)NC(=O)[C@@H](NC(C)=O)CSCCC(=O)N5CN6CN(C5)C(=O)CCSC[C@H](NC(=O)[C@H](Cc5ccc(O)cc5)NC(=O)[C@@H]5CCCN5C4=O)C(=O)N[C@@H](Cc4ccccc4)C(=O)N[C@@H](C)C(=O)N[C@@H](CC(=O)O)C(=O)N4CCC[C@H]4C(=O)N[C@@H](Cc4ccc(O)cc4)C(=O)N[C@@H](CCCC)C(=O)N[C@H](C(=O)N[C@@H](C)C(N)=O)CSCCC6=O)nn3)(COCCC(=O)NCCOCCOCCOCCOCCOCCOCCOCCOCCOCCOCCn3cc(CCC(=O)NCCCC[C@H]4NC(=O)[C@H](CCC(=O)O)NC(=O)[C@@H]5CCCN5C(=O)[C@H](CC(C)(C)C)NC(=O)[C@@H](NC(C)=O)CSCCC(=O)N5CN6CN(C5)C(=O)CCSC[C@H](NC(=O)[C@H](Cc5ccc(O)cc5)NC(=O)[C@@H]5CCCN5C4=O)C(=O)N[C@@H](Cc4ccccc4)C(=O)N[C@@H](C)C(=O)N[C@@H](CC(=O)O)C(=O)N4CCC[C@H]4C(=O)N[C@@H](Cc4ccc(O)cc4)C(=O)N[C@@H](CCCC)C(=O)N[C@H](C(=O)N[C@@H](C)C(N)=O)CSCCC6=O)nn3)COCCC(=O)NCCOCCOCCOCCOCCOCCOCCOCCOCCOCCOCCn3cc(CCC(=O)NCCC(=O)N[C@H]4CSCCC(=O)N5CN6CN(C5)C(=O)CCSC[C@H](NC(=O)[C@@H](CC(=O)O)NC(=O)[C@H](Cc5cccc7ccccc57)NC(=O)[C@@H]5CCCN5C4=O)C(=O)N[C@@H](CCSC)C(=O)N[C@@H](CCCCNC(=N)N)C(=O)N[C@@H](CC(=O)O)C(=O)N[C@@H](Cc4c[nH]c5ccccc45)C(=O)N[C@@H](CO)C(=O)N[C@@H]([C@@H](C)O)C(=O)N4CCC[C@H]4C(=O)N4C[C@H](O)C[C@H]4C(=O)N[C@@H](Cc4c[nH]c5ccccc45)C(=O)N[C@H](C(N)=O)CSCCC6=O)nn3)nn1)C(=O)N1CCC[C@H]1C(=O)N[C@@H](Cc1ccc(O)cc1)C(=O)N2 — Emax (Tumor necrosis factor receptor superfamily member 9/Nectin-4; reporter gene, agonist, luciferase reporter; CD137 Jurkat reporter with HT-1376; 6 h, geometric mean; relative to: wells without compound): 51 fold
CCCC[C@H]1C(=O)N(C)[C@@H](CCCC)C(=O)N[C@@H](CCCCNC(=O)CN2CCN(CC(=O)O)CCN(CC(=O)O)CC2)C(=O)N[C@H](C(=O)NCC(N)=O)CSCC(=O)N[C@@H](Cc2ccc(O)cc2)C(=O)N(C)[C@@H](C)C(=O)N[C@@H](CC(N)=O)C(=O)N2CCC[C@H]2C(=O)N[C@@H](Cc2c[nH]cn2)C(=O)N[C@@H](CCC(=O)O)C(=O)N2C[C@H](O)C[C@H]2C(=O)N[C@@H](Cc2c[nH]c3ccccc23)C(=O)N[C@@H](CO)C(=O)N[C@@H](Cc2cn(CC(=O)O)c3ccccc23)C(=O)N1C [gallium-68 labelled] — tumour uptake (CD274 (Homo sapiens, UniProt Q9NZQ7); PET; humanised NOG-EXL mice, U-87 MG xenograft; day D3 after antibody, with: anti-PD-L1 antibody 10 mg/kg): 0.6 %ID/g

Repeated from above:
COc1ccc2cc1Oc1ccc(cc1)C[C@H]1c3cc(c(OC)cc3CCN1C)Oc1c(OC)c(OC)cc3c1[C@H](C2)N(C)CC3 — inhibition (SLCO1B3; transport, inhibitor; 10 µM, with: EG): 41.9%
